{"data": "Experimental data pooled from the literature", "CYP3A4": "Cytochrome P450 3A4 (CYP3A4, Homo sapiens, UniProt P08684)", "chain of UniProt P08684 (whole entry, looked up)": "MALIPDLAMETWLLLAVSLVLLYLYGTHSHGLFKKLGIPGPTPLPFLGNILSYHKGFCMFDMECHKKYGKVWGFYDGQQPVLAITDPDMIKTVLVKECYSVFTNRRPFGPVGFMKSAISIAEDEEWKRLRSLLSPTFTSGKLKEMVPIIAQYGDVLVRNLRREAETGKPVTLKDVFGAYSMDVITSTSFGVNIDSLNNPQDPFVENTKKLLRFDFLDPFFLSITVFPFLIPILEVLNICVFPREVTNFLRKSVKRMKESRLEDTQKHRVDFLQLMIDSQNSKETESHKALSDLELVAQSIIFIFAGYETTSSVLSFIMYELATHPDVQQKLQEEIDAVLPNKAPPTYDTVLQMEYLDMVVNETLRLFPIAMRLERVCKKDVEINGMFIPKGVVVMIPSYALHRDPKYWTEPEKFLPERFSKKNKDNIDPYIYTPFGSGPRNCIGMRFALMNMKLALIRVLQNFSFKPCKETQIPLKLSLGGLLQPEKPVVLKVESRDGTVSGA", "chain of UniProt P20815 (whole entry, looked up)": "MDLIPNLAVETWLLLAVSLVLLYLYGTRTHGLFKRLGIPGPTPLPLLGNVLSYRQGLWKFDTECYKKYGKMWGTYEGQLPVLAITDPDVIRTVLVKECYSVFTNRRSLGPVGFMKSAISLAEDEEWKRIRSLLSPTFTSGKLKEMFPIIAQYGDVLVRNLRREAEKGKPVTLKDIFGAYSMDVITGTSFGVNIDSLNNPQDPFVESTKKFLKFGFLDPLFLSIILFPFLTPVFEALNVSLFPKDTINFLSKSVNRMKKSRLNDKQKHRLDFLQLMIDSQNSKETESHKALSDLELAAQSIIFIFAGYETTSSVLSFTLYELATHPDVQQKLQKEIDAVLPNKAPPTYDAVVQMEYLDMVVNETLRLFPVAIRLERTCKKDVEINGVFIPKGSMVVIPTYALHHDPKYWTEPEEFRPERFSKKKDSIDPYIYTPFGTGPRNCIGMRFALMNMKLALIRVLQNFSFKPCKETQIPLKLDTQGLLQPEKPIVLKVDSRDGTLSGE"}
{"SMILES": "C=CC(=O)Nc1cc(Nc2nccc(-c3cn(C)c4ccccc34)n2)c(OCC(F)(F)F)nc1N(C)CCN(C)C", "target": "Cytochrome P450 3A5 (CYP3A5, Homo sapiens, UniProt P20815)", "assay": "substrate", "conditions": "3 µM, 60 min, 3A5 isoform, liver abundance-normalized", "quantity": "contribution to substrate depletion", "result": "0.308%"}
{"SMILES": "O=C(CN1CN(c2ccccc2)C2(CCN(C(=O)c3ccc4[nH]ncc4c3)CC2)C1=O)N(CCO)CC(F)(F)F", "target": "CYP3A4", "assay": "enzyme activity, inhibitor", "quantity": "IC50", "result": "31 µM"}
{"SMILES": "CNC(=O)C1CCCN(C(=O)C2CC3CCC2N3C(=O)[C@@H]2C[C@@H](O)CN2C(=O)NCc2cccc(Cl)c2F)C1 (mixture of isomers)", "target": "CYP3A4 (human)", "assay": "inhibitor, time-dependent inhibition", "conditions": "0.206 µM, preincubated without NADPH, added: testosterone substrate", "how to read": "relative to: negative control", "quantity": "remaining activity", "result": "98.9%"}
{"SMILES": "O=C(c1ccc(-c2cccc(C(F)(F)F)c2)cc1)N1CCN(c2ncccn2)CC1", "target": "CYP3A4", "assay": "time-dependent inhibition, inhibitor", "quantity": "kobs", "result": "0.014 min⁻¹"}
{"SMILES": "C=CC(=O)N1C[C@H](C)N(c2nc(OC[C@@]34CCCN3C[C@H](F)C4)nc3c(F)c(-c4ccc(F)c5sc(N)c(C#N)c45)c(C(F)(F)F)cc23)C[C@H]1C", "target": "glutathione", "assay": "reaction with glutathione, HPLC", "conditions": "pH 7.4, 37 °C, added: 5 mM glutathione", "quantity": "half-life", "result": "1.25 h"}
{"SMILES": "N#Cc1cc(NC(=O)C2c3ccccc3C(=O)N(CC(F)(F)F)C2c2cccnc2)ccc1F (racemic)", "target": "CYP1A2, 2C9, 2C19, 2D6, 3A4 (human)", "assay": "substrate turnover", "system": "liver microsomes", "conditions": "10 µM, maximum across isoforms", "quantity": "inhibition", "result": "< 50%"}
{"SMILES": "C=CC(=O)N1CC2(CCN(c3nc(OC4CCN(CCCOC)CC4)nc4c(OCC(F)(F)F)c(-c5c(C)ccc6[nH]ncc56)c(C5CC5)cc34)CC2)C1", "target": "glutathione", "assay": "reaction with glutathione, HPLC", "conditions": "pH 7.4, 37 °C, added: 5 mM glutathione", "quantity": "half-life", "result": "1.01 h"}
{"SMILES": "CN(CC(F)(F)F)C(=O)CN1CN(c2ccccc2)C2(CCN(C(=O)c3ccc4[nH]ncc4c3)CC2)C1=O", "target": "CYP3A4", "assay": "enzyme activity, inhibitor", "quantity": "IC50", "result": "22 µM"}
{"note": "A few entries again:"}
{"SMILES": "O=C(CN1CN(c2ccccc2)C2(CCN(C(=O)c3ccc4[nH]ncc4c3)CC2)C1=O)N(CCO)CC(F)(F)F", "target": "CYP3A4", "assay": "enzyme activity, inhibitor", "quantity": "IC50", "result": "31 µM"}
